Results pooled from the literature.
Every numbered part comes from another study and shows a few of its results, in no order.

Series 1 — method: protein binding microarray; form: double-stranded DNA, one strand shown; medium: in vitro; tested at: not given; baseline: not given; reading: higher = stronger binding; quantity: E-score
Target: Histone acetyltransferase KAT6A, winged helix 2, GST fusion (KAT6A, Homo sapiens, UniProt Q92794, residues 85-181)
Notes: 8-mer, flanks averaged, mean of 2 arrays, mostly near background
Construct (chain): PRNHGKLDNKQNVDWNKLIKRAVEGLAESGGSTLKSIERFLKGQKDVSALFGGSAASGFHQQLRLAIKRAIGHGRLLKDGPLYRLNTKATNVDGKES
Sequence = ACGCATTA; value = -0.0023
Sequence = GCCACAAA; value = 0.176
Sequence = CTTAGCCC; value = 0.0644
Sequence = CCTGAGGA; value = -0.0239
Sequence = GACAGTAA; value = -0.00694
Sequence = CCGGGGGC; value = 0.133

Series 2 — method: universal PBM; form: double-stranded DNA, one strand shown; medium: in vitro; tested at: 600 nM; reading: higher = stronger binding; quantity: E-score
Target: Sal-like protein 4, full length isoform A (SALL4, Homo sapiens, UniProt Q9UJQ4, residues 1-1053)
Sequence of UniProt Q9UJQ4 (whole entry, looked up): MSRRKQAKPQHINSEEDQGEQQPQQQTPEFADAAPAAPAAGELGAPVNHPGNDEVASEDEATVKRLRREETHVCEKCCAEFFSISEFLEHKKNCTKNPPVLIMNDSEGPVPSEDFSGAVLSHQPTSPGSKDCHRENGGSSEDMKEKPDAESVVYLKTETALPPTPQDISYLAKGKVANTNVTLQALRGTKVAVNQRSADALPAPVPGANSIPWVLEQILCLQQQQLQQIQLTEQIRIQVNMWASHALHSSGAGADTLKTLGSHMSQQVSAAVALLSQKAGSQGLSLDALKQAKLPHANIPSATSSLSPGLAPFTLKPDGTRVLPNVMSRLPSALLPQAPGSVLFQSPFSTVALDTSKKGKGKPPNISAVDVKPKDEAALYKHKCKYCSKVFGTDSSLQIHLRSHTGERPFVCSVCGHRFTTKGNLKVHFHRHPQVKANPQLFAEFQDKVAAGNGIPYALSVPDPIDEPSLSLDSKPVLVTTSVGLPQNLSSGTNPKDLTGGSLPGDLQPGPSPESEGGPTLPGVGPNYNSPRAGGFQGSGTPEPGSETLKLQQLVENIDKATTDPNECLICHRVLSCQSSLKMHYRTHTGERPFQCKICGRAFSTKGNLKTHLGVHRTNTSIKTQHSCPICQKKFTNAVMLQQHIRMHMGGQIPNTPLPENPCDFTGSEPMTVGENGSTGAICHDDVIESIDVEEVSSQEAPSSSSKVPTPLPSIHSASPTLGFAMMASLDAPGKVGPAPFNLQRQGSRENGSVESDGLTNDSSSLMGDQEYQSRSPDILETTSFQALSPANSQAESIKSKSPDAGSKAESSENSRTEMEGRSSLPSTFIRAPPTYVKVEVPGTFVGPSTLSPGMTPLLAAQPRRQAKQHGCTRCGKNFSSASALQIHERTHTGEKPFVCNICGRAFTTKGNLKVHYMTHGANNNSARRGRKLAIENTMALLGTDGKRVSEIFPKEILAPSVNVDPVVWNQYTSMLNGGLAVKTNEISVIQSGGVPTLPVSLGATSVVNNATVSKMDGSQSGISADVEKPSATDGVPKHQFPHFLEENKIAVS
Notes: 8-mer, flanks averaged, mean of replicates
Sequence = ACACTGCC; value = -0.0471
Sequence = AACTAAAG; value = 0.258
Sequence = GATTCAGA; value = 0.0873
Sequence = CTCAATGC; value = 0.0745
Sequence = GATGGCTA; value = 0.0784
Sequence = ATTAGGGG; value = -0.0559

Series 3 — method: protein-binding microarray; form: double-stranded DNA, one strand shown; medium: in vitro; tested at: 2540 nM top; notes: 60-bp whole probe; together with: salmon DNA 0.4 mg/ml; baseline: random background probes; reading: higher = stronger binding; quantity: fitted relative affinity
Target: Interferon regulatory factor 3, full length, phosphomimetic (IRF3, Homo sapiens, UniProt Q14653, residues 1-427, S386D/S396D/S398D/S402D/T404D/S405D)
Construct (chain): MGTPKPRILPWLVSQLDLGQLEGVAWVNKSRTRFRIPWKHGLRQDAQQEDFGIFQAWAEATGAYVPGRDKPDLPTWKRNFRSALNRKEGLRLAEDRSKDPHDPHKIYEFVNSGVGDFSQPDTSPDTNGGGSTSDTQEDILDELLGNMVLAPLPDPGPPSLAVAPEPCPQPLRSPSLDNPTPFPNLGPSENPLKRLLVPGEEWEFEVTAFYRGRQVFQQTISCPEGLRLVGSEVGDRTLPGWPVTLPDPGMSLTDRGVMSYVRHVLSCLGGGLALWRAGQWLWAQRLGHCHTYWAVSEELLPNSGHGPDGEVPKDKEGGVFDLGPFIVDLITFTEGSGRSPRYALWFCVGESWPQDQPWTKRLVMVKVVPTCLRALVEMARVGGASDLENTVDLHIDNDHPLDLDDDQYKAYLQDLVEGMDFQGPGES
Sequence = GCCTAGCACGAAACACTAATTTTTACTTTGTGCTAGGTCTTGATTCGCTTGACGCTGCTG; value = 0.788 z-score
Sequence = GCCTAGCACGACGGTATCCTACTTCTGACGTGCTAGGTCTTGATTCGCTTGACGCTGCTG; value = 4.07 z-score
Sequence = GCCTAGCACTTGGGTATCCTTATCCTTTAGTGCTAGGTCTTGATTCGCTTGACGCTGCTG; value = 3.98 z-score
Sequence = GCCTAGCACTTAGCACTGGGTTTCGGTTAGTGCTAGGTCTTGATTCGCTTGACGCTGCTG; value = 2.94 z-score

Single results of other studies
Substance = PhoQ, residues 284 288 289 292 302 303 MLMVEA; target = PhoP, residues 12 14 15 18 19 LFHKL (Escherichia coli, UniProt P23836); test = Sort-seq, refers to: YFP reporter; test system = E. coli; conditions = PhoQ-PhoP variant library, together with: 10 µM Mg2+; scale = baseline: high Mg2+ state, higher = stronger signaling; quantity = fold induction; value = 2.19

For quick reference, copied from above (series 2):
Sequence = CTCAATGC; value = 0.0745
Sequence = GATGGCTA; value = 0.0784
